# Results gathered from unrelated publications.
# Each numbered part is a random draw from the data of one study; scales do not carry over between parts.

# Study 1 — technique: protein binding microarray; molecule type: double-stranded DNA, one strand shown; sample: in vitro; concentration: not given; relative to: not given; reading: higher = stronger binding
# Target: Histone acetyltransferase KAT6A, winged helix 1, GST fusion (KAT6A, Homo sapiens, UniProt Q92794, residues 1-85)
# Setting: 8-mer, flanks averaged, mean of 2 arrays, mostly near background
# Residues (chain): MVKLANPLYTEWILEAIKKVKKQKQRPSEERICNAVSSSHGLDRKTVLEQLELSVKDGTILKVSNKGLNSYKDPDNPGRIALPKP
Oligonucleotide,E-score
AGAGCACG,0.0239
TAGGAATA,-0.266
AGGTCTAA,-0.235
ATACGCCA,0.0387
CTTGCACA,-0.184
CCCATTTC,-0.247
GCGCTTTA,0.325
ATGCTTCC,-0.22
CTCAGATA,-0.185
CACCAGAA,-0.202
CCCCCTAG,-0.248
CACGCGTC,0.255
AGGTACGC,0.18
AGGGAGGC,-0.0725
CCTTATCG,0.0423
GACAAAGA,-0.162
GAGGAACA,-0.0971
AATGGTCG,0.00166
CACCTAAG,-0.051

# Study 2 — technique: protein-binding microarray; molecule type: double-stranded DNA, one strand shown; sample: in vitro; concentration: 940 nM top; setting: 60-bp whole probe; with: salmon DNA 0.4 mg/ml; relative to: random background probes; reading: higher = stronger binding; constant ends, left off below: GCCTAGCAC … GTCTTGATTCGCTTGACGCTGCTG
# Target: Interferon regulatory factor 5, full length, phosphomimetic (IRF5, Homo sapiens, UniProt Q13568-2, residues 1-514, S451D/S453D/S456D/S462D)
Oligonucleotide,fitted relative affinity
GTAGGTCTCGGTTTCGGTTAGTGCTAG,9.19 z-score
GATGGACTGGGGTTTCGGGACGTGCTA,1.84 z-score
TTAGATCTCAAACTGGATTAGTGCTAG,-0.506 z-score
GACGGTTTCGACTTCCGGGACGTGCTA,8 z-score
TTTGGACTGGACACTGGGTTAGTGCTA,-0.461 z-score
TAAATTTTGATGGAGAGTGCGTGCTAG,-0.346 z-score
GACGATTTCAGTCTCCAGACGTGCTAG,0.58 z-score
TTAGATATCAGACTGGGTTAGTGCTAG,-0.413 z-score
GACGGTATCGGTATCAGGACGTGCTAG,8.09 z-score
GACGATCCCAGTTTCGAGACGTGCTAG,4.43 z-score
GACGCTTTCCTTATCCTGACGTGCTAG,1.29 z-score
TTAGAATTGAGTTTCGATTAGTGCTAG,6.83 z-score
GACGATCTCAGTTCCGAGACGTGCTAG,0.509 z-score
AACGGTATCCTTTTCCTGACGTGCTAG,0.356 z-score
TCAGTTTTCTTTTCCATACTGTGCTAG,2.18 z-score
GACCGTCTCGGTTTCGGGACGTGCTAG,6.43 z-score
TTAGGACTGGTACTGCTTTAGTGCTAG,-0.452 z-score
GAGGGTATCGGGTTTCGGGACGTGCTA,3.87 z-score
GACGGTATCCTTTTCCGGACGTGCTAG,0.647 z-score
TCATATCCCTAATCTCAGACTGTGCTA,1.22 z-score
AACGAACTGGGGTTTCGAGACGTGCTA,1.86 z-score
GACGGACTGCTAATCCTGACGTGCTAG,-0.702 z-score

# Study 3 — technique: RNA Bind-n-Seq; molecule type: RNA; sample: in vitro; concentration: 200 nM; setting: whole 134-nt RNA, ends assumed; with: 150 mM LiCl; relative to: input library; reading: higher = stronger binding; each molecule: 7-deaza-guanosine replaces G
# Target: Ras GTPase-activating protein-binding protein 1, full length (G3BP1, Homo sapiens, UniProt Q13283)
# Sequence of UniProt Q13283 (whole entry, looked up): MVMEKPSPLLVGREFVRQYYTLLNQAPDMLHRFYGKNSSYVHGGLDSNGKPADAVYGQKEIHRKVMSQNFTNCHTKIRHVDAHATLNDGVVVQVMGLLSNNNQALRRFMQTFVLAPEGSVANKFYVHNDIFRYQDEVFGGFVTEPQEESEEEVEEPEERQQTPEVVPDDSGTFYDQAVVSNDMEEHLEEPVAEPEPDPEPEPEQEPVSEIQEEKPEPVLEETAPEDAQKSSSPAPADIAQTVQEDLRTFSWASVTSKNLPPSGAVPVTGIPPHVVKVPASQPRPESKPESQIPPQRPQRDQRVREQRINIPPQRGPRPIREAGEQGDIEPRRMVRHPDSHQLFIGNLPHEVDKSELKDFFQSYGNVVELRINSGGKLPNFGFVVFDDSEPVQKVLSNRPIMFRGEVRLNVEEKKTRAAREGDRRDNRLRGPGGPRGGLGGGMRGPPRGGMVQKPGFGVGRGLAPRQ
# Constant ends, left off below: GGGAGUUCUACAGUCCGACGAUC … UGGAAUUCUCGGGUGUCAAGG
Oligonucleotide,log2 enrichment
CUGCGCGCGGAUUUCCCUCUCUGAGGAAGUUUAUCCUUGUGCCUUCUGGAGGAUUUCUCUCUAGCUCGACUCACUCUGGACUGACUCGCU,-0.99
GUCCUGUGCUACACAUCGUAUGUACCGAAUCGGGGUUUUUGGGUUUUUGGUUUUUGGGAAAGUAUUAUGUUACGCCGUUCGGAUCUGCAC,-0.726
UCCUGUGCUACACAUCGUAUGUACCGAAUCAAACCCCCAAAUUUUUAAAUUUUUUUAAAAAAGUAUUAUGUUACGCCGUUCGGAUCUGCA,1.36
GUCCUGUGCUACACAUCGUAUGUACCGAAUCGGGUUUUUGGGAAAGGGUUUUUUUGGGAAAGUAUUAUGUUACGCCGUUCGGAUCUGCAC,-1.06
CCUGUGCUACACAUCGUAUGUACCGAAUCGGGGUUUGGGGUUUUUUUGGGGUUUUUGGGGAAAGUAUUAUGUUACGCCGUUCGGAUCUGC,0.564
GGUGGACUAUGGUGCAACAGCAGAAGAGCUGGAAGCUCACUUUCAUGGCUGUGGUUCAGUCAACCGUGUUACCAUACUGUGUGACAAAUU,-1.36
ACCAUGCAGGUGGGAAUCUUUGGGAAGUGGGGCAAGGGGGGGAUAGGGAGGGGGGUAACACUUUGGGAACAGGUGGUCCCAGGUCGUUUC,0.136
CACAGACAACACGCACCCACACAGACACAGAGGGAAGGGGUUGGGAUGGGGACAGGGUGCCCAGCAGGGCGGGGUAGGACCCCAGCCCCU,0.565
CAAGUCCUGUGCUACACAUCGUAUGUACCGAAUCGGAAAAGGAAAAGGAAAAGGGAAAGUAUUAUGUUACGCCGUUCGGAUCUGCACUUC,-0.618
CAAGUCCUGUGCUACACAUCGUAUGUACCGAAUCGGGAAAGGGUGGGAAAAAGGGAAAGUAUUAUGUUACGCCGUUCGGAUCUGCACUUC,-0.571
AAGUCCUGUGCUACACAUCGUAUGUACCGAAUCGGGGAAAGGGGAGGGGAAAGGGGAAAGUAUUAUGUUACGCCGUUCGGAUCUGCACUU,0.761

# Study 4 — technique: RNA Bind-n-Seq; molecule type: RNA; sample: in vitro; concentration: 365 nM; relative to: no-protein control; reading: higher = stronger binding
# Target: RNA binding protein fox-1 homolog 2, RRM domain, GST-SBP tag (RBFOX2, Homo sapiens, UniProt O43251-10, residues 100-194)
# Setting: natural RNA segment, single round, ends assumed
# Constant ends, left off below: GGGAGUUCUACAGUCCGACGAUC … UGGAAUUCUCGGGUGCCAA
# Residues (chain): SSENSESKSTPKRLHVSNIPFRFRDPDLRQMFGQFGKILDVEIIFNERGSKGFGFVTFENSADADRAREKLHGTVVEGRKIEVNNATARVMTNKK
Oligonucleotide,RBNS enrichment (R)
UGAAACUGCUGUCUCUGAAACUCUUCCUCCAUUAGAGCGCUCCAGUAACCCAUGAAGGCCCACAGCGGGAUGGGACUAGUUUAUAGGAGAGCGUUGUCAAUACCACUUAU,0.515
UAAUUUCUCAUUUAUUUGUCUAGAAAAUCCAUAAUGAUAUAGGACAUUUAUACCGAGUGAGAUCAUUAACAAUGAAAUUGAGAGAUUAGAGCAUCCUCACUGGGUGAUGG,0.444
GCUGAAUGGGGCUGCAAGGCCAAGGCUCCUUAGGGGAGAGGUCCUUACCUCUGAUCCACUUAGAGCAAUAACCACUUUUUAAAUGUAAAAUAAAAAGACAAAUGAAAAGG,0.53
AGUUGAUGAAGGAGUUUUUUUUAACCUGUUUAUAUAAUUUUGCAGCAGAAGCCAAAUUUUUUGUAUAUUAAAGCACCAAAUUCAUGUACAGCAUGCAUCACGGAUCAAUA,3.05
UUUCUAGAAAGUUAGGAUUGGGCAGAUAGUUGAGUCCUAAUCUAUCAAAUCAUUGUUGCCUCUCAUACCAAAAUGUUCUUACCCACUGUCCUUCCCCCUUCUCUGCUUUG,0.671
CUGGUAUCUGUCUGGUAGCAGUGAGACCCCUUGUCUUGGUGAUCCUUACUGGGUUUCCAAGCAGAGGAGUCACAUGAUUACAAUUGCCAGUAGAGUUGUUGUUUGGGGUA,0.259
AUGAUCUGAACAAAAGCUUUUUGAAUUGUAUAAGAUUUAUGUCUACUGUAAACAUUGCUUAAUUUUUUUGCUCUUGAUUUAAAAAAAAGUUUUGUUGAAAGCGCUAUUGA,0.782
CCACUGGGGAGGAAUCCUGGACCAAGCACAAAAACUUAACAAAAGUGAUGUAAAAAUGAAAAGCCAAAUAAAAAUCUUUGGAAAAGAGCCUGGAGGUUCAACGAGGAAAA,0.507
CUCACUUCAGAGUGUGACUCUUUAAAUAUUAAAAUAGAUACUAACUGUUCAUAGAACAGGCCGAUUCUGAUUAGAUUUUAUCAGGGAAUCUGUUAAGAUAUGUUUGGUGA,0.378
UCACUUCAGGAGCAAGCUGUUUGCUGUGCUUACCCUUCACCUCAGUGCAGAGGUCUCCAGUGCCGAGCACAGGCACCUGCCAUCAGUAGUUCCUGUGUCAUCUUCACAUC,0.338
GUGCCCUGAAAACUUGAAGGUUAACCCAAACUGUCAAGAUUUAGGAUAGUCAAGAAAAGGUUUAACUAGUUUUAGUAUCAGACUUUAAAAUUUCUUAAAGAUUUUGGUAA,0.358
CACAGCAUUCAGGCCACUUGGGGUCUAGACCAUGGUGGUGCCAGCCUGGGGGGGGCAGUGGCCCUCAGCUCUGCCCGCUGGAGCGGUUGAGUGCAGAAGGGUGCGCCUCU,0.822

# Excerpt of the above (study 4):
Oligonucleotide,RBNS enrichment (R)
UGAAACUGCUGUCUCUGAAACUCUUCCUCCAUUAGAGCGCUCCAGUAACCCAUGAAGGCCCACAGCGGGAUGGGACUAGUUUAUAGGAGAGCGUUGUCAAUACCACUUAU,0.515
UAAUUUCUCAUUUAUUUGUCUAGAAAAUCCAUAAUGAUAUAGGACAUUUAUACCGAGUGAGAUCAUUAACAAUGAAAUUGAGAGAUUAGAGCAUCCUCACUGGGUGAUGG,0.444
GCUGAAUGGGGCUGCAAGGCCAAGGCUCCUUAGGGGAGAGGUCCUUACCUCUGAUCCACUUAGAGCAAUAACCACUUUUUAAAUGUAAAAUAAAAAGACAAAUGAAAAGG,0.53
AGUUGAUGAAGGAGUUUUUUUUAACCUGUUUAUAUAAUUUUGCAGCAGAAGCCAAAUUUUUUGUAUAUUAAAGCACCAAAUUCAUGUACAGCAUGCAUCACGGAUCAAUA,3.05
